{"data": "Measured values from different studies", "cell line": "OVCAR-5", "note": "Protocols differ between the studies behind these lines. pIC50: −log10 of the molar value."}
{"Compound": "CN(C)CCN1CCN(c2ccc3nc(-c4ccc5nc(-c6ccc(C(F)(F)F)cc6)[nH]c5c4)[nH]c3c2)CC1", "test": "SRB", "setting": "10 µM, 48 h", "quantity": "growth percent", "result": "114%"}
{"Compound": "C=Cc1c(C)c2cc3nc(c(CC(=O)OCCOCCOCCOC)c4[nH]c(cc5nc(cc1[nH]2)C(C)=C5CC)c(C)c4C(=O)O)[C@@H](CCC(=O)OCCOCCOCCOC)[C@@H]3C", "test": "MTT", "setting": "0.1 µM, added: D-mannitol 30 mM", "how to read": "relative to: compound alone", "quantity": "reduction of phototoxicity", "result": "~4%"}
{"Compound": "Cc1nc2c(F)cc(-c3nc(Nc4ccc(C(=O)NCCCCCC(=O)NO)cc4)ncc3F)cc2n1C(C)C", "test": "cell growth or viability, CCK-8", "setting": "0.3 µM, 48 h", "quantity": "inhibition", "result": "104%"}
{"Compound": "C=Cc1c(C)c2cc3nc(c(CC(=O)OCCOCCOCCOC)c4[nH]c(cc5nc(cc1[nH]2)C(C)=C5CC)c(C)c4C(=O)OCCOCCOCCOC)[C@@H](CCC(=O)OCCOCCOCCOC)[C@@H]3C", "test": "MTT", "setting": "0.1 µM, added: sodium azide 2 mM", "how to read": "relative to: compound alone", "quantity": "reduction of phototoxicity", "result": "10%"}
{"Compound": "Cc1nc2c(F)cc(-c3nc(Nc4ccc(CNC(=O)CCCC(=O)NO)cc4)ncc3F)cc2n1C(C)C", "test": "cell growth or viability, CCK-8", "setting": "0.3 µM, 48 h", "quantity": "inhibition", "result": "87.5%"}
{"Compound": "C1=[N+]2CCCC[N+]3=Cc4ccc5[n]4[Au-]23[n]2c1ccc2-c1nc2ccccc2nc1-5.F[P-](F)(F)(F)(F)F", "test": "NCI60 five-dose screen", "quantity": "TGI", "result": "4.35 -log M"}
{"Compound": "O=C(Nc1nnc2c1c(-c1ccc(Cl)cc1)nc1sc(=Cc3ccco3)c(=O)n12)c1ccccc1 (mixture of isomers)", "test": "SRB", "setting": "10 µM, NCI60 single-dose screen", "how to read": "relative to: untreated", "quantity": "cell growth", "result": "66.3%"}
{"Compound": "Cn1ncc(-c2ccc3c(=O)[nH]nc(CN)c3c2)c1-c1c(F)c(Cl)cc(OC2CC2)c1C#N", "test": "cell viability, inhibitor, CellTiter-Glo", "setting": "120 h, baseline-subtracted", "quantity": "pIC50", "result": 6.74}
{"Compound": "Cc1ccc([N+](=O)[O-])cc1S(=O)(=O)N(C)/N=C/c1cnc2ccc(Br)cn12", "test": "cell viability, MTS", "quantity": "pIC50", "result": 7.40}
{"Compound": "CCOc1cncc(-c2ccc(NC(=O)C3(c4ccnc(NS(=O)(=O)C5CC5)n4)CCOCC3)nc2)n1", "test": "cell proliferation, CellTiter-Glo", "setting": "72 h", "quantity": "pIC50", "result": 7.46}
{"note": "Repeated from above:"}
{"Compound": "Cn1ncc(-c2ccc3c(=O)[nH]nc(CN)c3c2)c1-c1c(F)c(Cl)cc(OC2CC2)c1C#N", "test": "cell viability, inhibitor, CellTiter-Glo", "setting": "120 h, baseline-subtracted", "quantity": "pIC50", "result": 6.74}
